Results collected from several papers.
“And” joins repeats or separate records; there may be more than shown. ± marks the error that the study gave.
Sequence of UniProt Q64663 (whole entry, unmodified, looked up): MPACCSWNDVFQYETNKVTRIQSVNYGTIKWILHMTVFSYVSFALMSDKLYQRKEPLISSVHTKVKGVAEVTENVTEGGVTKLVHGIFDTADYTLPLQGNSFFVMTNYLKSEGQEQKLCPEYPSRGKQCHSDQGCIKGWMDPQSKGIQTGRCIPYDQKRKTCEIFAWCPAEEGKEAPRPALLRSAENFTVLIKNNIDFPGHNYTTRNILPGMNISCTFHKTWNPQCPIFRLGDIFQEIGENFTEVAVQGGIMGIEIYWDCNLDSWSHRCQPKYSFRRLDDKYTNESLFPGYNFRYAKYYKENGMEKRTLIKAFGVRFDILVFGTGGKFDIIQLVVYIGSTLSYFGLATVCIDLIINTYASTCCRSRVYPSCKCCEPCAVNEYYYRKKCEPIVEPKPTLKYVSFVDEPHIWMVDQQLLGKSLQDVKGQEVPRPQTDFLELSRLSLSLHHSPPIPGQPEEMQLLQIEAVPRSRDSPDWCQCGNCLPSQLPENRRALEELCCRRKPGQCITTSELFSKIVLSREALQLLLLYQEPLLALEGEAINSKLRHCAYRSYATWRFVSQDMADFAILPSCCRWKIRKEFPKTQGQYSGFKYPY
Sequence of UniProt P48067 (whole entry, looked up): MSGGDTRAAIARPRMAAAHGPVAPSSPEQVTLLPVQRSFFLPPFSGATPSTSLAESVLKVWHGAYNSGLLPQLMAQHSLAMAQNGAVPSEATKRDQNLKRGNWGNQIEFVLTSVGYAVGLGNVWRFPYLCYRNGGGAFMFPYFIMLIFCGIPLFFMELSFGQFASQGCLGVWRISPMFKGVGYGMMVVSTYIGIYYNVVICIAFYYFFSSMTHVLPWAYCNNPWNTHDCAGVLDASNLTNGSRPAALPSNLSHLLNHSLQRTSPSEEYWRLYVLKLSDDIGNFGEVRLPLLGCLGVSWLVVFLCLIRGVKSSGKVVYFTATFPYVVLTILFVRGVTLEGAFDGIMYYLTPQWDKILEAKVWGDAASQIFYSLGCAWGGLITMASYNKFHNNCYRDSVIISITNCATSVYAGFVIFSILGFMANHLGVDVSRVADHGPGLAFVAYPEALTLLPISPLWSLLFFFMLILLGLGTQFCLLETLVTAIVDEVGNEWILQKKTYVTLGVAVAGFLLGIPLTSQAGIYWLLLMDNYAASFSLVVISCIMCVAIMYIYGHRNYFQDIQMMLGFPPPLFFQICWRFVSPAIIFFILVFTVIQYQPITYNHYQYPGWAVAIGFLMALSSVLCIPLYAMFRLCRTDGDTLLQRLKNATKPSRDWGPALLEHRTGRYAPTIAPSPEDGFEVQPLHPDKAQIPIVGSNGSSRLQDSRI

Under “glycine uptake rate”, `methyl-β-cyclodextrin` is recorded as 62.9 a.u. and 51.1 a.u. and 51.4 a.u. and 66.3 a.u. (Sodium- and chloride-dependent glycine transporter 1 (SLC6A9, Homo sapiens, UniProt P48067); transport activity, [3H]glycine uptake; 2.5 mg/mL, 1 min, together with: glycine 600 µM; higher = more transport).
`GLGQWISRA` gave a reporter activation of 0.00369% (Jurkat T cells expressing 1G4 TCR; NFAT-eGFP reporter, fluorescence microscopy; peptide; concentration not given, HLA-A*02:01 NY-ESO system).
`PMESGICTIV` gave a binding intensity of 0.119 (human MAGI1-3/6 PDZ construct (MBP fusion); automated holdup; peptide, crude extract; concentration not given, uncorrected, unit not given; relative to: biotin control resin, higher = stronger binding).
The reporter activation of `TLLQWVTQI` is reported as 27.7% (Jurkat T cells expressing 1G4 TCR; NFAT-eGFP reporter, fluorescence microscopy; peptide; concentration not given, HLA-A*02:01 NY-ESO system).
`GSGAGIESNV` gave a binding intensity of 0.56 (human SCRIB PDZ3-4 tandem (MBP fusion); automated holdup; peptide, purified PDZ protein; concentration not given, unit not given; relative to: biotin control resin, higher = stronger binding).
`ALLQWIAIL` gave a reporter activation of 0.0108% (Jurkat T cells expressing 1G4 TCR; NFAT-eGFP reporter, fluorescence microscopy; peptide; concentration not given, HLA-A*02:01 NY-ESO system).
The co-IP enrichment of `CCT6A` is reported as 30.8 (co-immunoprecipitation; human RBC membrane; DMTMM crosslinker, unit not given, together with: Band 3 peptide 1-56 bait; relative to: negative control).
For `BzATP`, the normalized current was 0.0131 and 0 and 0.0198 (P2X purinoceptor 7 (P2rx7, Rattus norvegicus, UniProt Q64663, I214A/Q143A/R125A); ion current, agonist, two-electrode voltage clamp; Xenopus oocytes; 11 µM).
`ALLTWVTQV` gave a reporter activation of 24.7% (Jurkat T cells expressing 1G4 TCR; NFAT-eGFP reporter, fluorescence microscopy; peptide; concentration not given, HLA-A*02:01 NY-ESO system).
`GSGAGIATEV` gave a binding intensity of 0.868 (human SCRIB PDZ3-4 tandem (MBP fusion); automated holdup; peptide, crude extract; concentration not given, uncorrected, unit not given; relative to: biotin control resin, higher = stronger binding).
For `FKBP12`, the co-IP enrichment was 4.73 (co-immunoprecipitation; human RBC membrane; DSSO crosslinker, unit not given, together with: Band 3 peptide 1-56 bait; relative to: negative control).
The MIC of `colistin` is reported as at most 1 µg/mL (Pseudomonas aeruginosa; clinical isolate RKI 21/12).
`EKPIDSETKM` has a binding intensity of -0.0456 (human SCRIB PDZ3-4 tandem (MBP fusion); automated holdup; peptide, purified PDZ protein; concentration not given, unit not given; relative to: biotin control resin, higher = stronger binding).
`ALLQWVSQV` has a reporter activation of 23.1% (Jurkat T cells expressing 1G4 TCR; NFAT-eGFP reporter, fluorescence microscopy; peptide; concentration not given, HLA-A*02:01 NY-ESO system).
`ACDDQNPWRAYLDLLFPTDTLLLDLLW`: “mean fluorescence intensity” 298 ± 28.6 a.u. (ex vivo fluorescence imaging; peptide, BALB/c mice, 4T1 tumour-bearing, muscle; intravenous, 5 nmol, 24 h post-injection; higher = more uptake).
`Peginesatide` has a mRNA level of 3.2 fold (UT7/EPO; RT-qPCR, item: PTGS2; concentration not given, 90 min, normalized to HPRT1; relative to: vehicle).
`FNA / CGLSGLGVA-NH2 ([18F]FNA-labelled, C-amide)` gave a tissue uptake of 1.06 %ID/g (ex vivo gamma counting; peptide, glioblastoma mouse model, plasma; 60 min post injection, together with: 500-fold excess CooP blocking).
For `insulin degludec`, the terminal half-life was 15.3 ± 2.7 h (human; subcutaneous, 0.4 IU/kg, 2 FC level, single dose, reference formulation).
Under cross-linked residues, `FGA (Homo sapiens, UniProt P02671)` is recorded as “K238 to K559” (KIF15 (Homo sapiens, UniProt Q9NS87); cross-linking MS; together with: DSSO).
The mRNA level of `epoetin alfa` is reported as 74.8 fold (UT7/EPO; microarray, item: SOCS3 mRNA (probe set 227697_at); 5 U/mL, 90 min; relative to: vehicle).
For `ACEEQNPWARYLEWLFPTETLLLEL`, “mean fluorescence intensity” read 191 ± 8.3 a.u. (ex vivo fluorescence imaging; peptide, BALB/c mice, 4T1 tumour-bearing, muscle; intravenous, 5 nmol, 24 h post-injection; higher = more uptake).
`11-deoxycorticosterone` — result for “rate constant k-3”: 0.489 min⁻¹ (CYP11B2 (human); substrate binding, stopped-flow kinetic modelling; 4-state branched induced-fit model, together with: no adrenodoxin).
The co-IP enrichment of `TCP-1 alpha` is reported as 28000 (co-immunoprecipitation; human RBC cytosol; DMTMM crosslinker, unit not given, together with: Band 3 peptide 1-56 bait; relative to: negative control).
With `GSGAGSETSV` the binding intensity was 0.213 (human MAGI1-3/6 PDZ construct (MBP fusion); automated holdup; peptide, crude extract; concentration not given, corrected by standard peak, unit not given; relative to: biotin control resin, higher = stronger binding).
`adenosylhomocysteinase` gave a co-IP enrichment of 5000 (co-immunoprecipitation; human RBC cytosol; DSSO crosslinker, unit not given, together with: Band 3 peptide 1-56 bait; relative to: negative control).
`NRVDSKETEC` — result for “normalised SPR binding response”: 44.3 normalised RU (human SCRIB PDZ3-4 tandem (MBP fusion); surface plasmon resonance; peptide; concentration not given; higher = stronger binding).
For `MTVCNASQRQAHAQATAVSL`, the selectivity ratio was 3.4 ± 1.3 (H1975 lung adenocarcinoma; phage binding output/input; peptide; relative to: control phage).

Some of these lines once more:
`GSGAGIESNV` gave a binding intensity of 0.56 (human SCRIB PDZ3-4 tandem (MBP fusion); automated holdup; peptide, purified PDZ protein; concentration not given, unit not given; relative to: biotin control resin, higher = stronger binding).
